Experimental data of several laboratories.
Parts stem from different laboratories: compare values within a part only. Changes are numbered by the printed parent chain.

Block 1
Target: CCND1, cyclin fold, Cln2 fusion (human)
Method: yeast growth competition, sequencing
Medium: yeast
Setting: weak parent motif
Relative to: not given
Direction: higher = stronger binding
Starting sequence: PKMYT1 docking peptide (human); SFEPRNLLSLFED
Variant	normalised enrichment score
SFEPRNYLSLFED [L7Y]	1.1
SFEPRNLLSLAED [F11A]	0.367
SFEPRNLLSLFEA [D13A]	0.961
SFEPRNLLSLFND [E12N]	1.56
SFEPRNLKSLFED [L8K]	1.05
SFEPRNLWSLFED [L8W]	1.11
SFERRNLLSLFED [P4R]	1.55
SFEPRNLLSVFED [L10V]	0.285
SFEPRNDLSLFED [L7D]	0.941
SFEPRNCLSLFED [L7C]	1.42
SFDPRNLLSLFED [E3D]	0.935
SFEPRNLLCLFED [S9C]	1.02
SFEPRNHLSLFED [L7H]	0.918
SFEPRNLLSLEED [F11E]	0.394
SFEPRNLLYLFED [S9Y]	1.62
SFEPRNLLSLCED [F11C]	0.882
SFAPRNLLSLFED [E3A]	0.23
SFEPRVLLSLFED [N6V]	1.21
SFESRNLLSLFED [P4S]	1.06
SFEPCNLLSLFED [R5C]	0.955
SFEPYNLLSLFED [R5Y]	1.17
SFEPRNLLRLFED [S9R]	0.93
SFEPRNKLSLFED [L7K]	1.38
SFEPRNLLSDFED [L10D]	1.04
SFEPRNLLMLFED [S9M]	1.11

Block 2
Target: Sal-like protein 4, full length isoform A (SALL4, Homo sapiens, UniProt Q9UJQ4, residues 1-1053)
UniProt Q9UJQ4, sequence (whole entry, looked up): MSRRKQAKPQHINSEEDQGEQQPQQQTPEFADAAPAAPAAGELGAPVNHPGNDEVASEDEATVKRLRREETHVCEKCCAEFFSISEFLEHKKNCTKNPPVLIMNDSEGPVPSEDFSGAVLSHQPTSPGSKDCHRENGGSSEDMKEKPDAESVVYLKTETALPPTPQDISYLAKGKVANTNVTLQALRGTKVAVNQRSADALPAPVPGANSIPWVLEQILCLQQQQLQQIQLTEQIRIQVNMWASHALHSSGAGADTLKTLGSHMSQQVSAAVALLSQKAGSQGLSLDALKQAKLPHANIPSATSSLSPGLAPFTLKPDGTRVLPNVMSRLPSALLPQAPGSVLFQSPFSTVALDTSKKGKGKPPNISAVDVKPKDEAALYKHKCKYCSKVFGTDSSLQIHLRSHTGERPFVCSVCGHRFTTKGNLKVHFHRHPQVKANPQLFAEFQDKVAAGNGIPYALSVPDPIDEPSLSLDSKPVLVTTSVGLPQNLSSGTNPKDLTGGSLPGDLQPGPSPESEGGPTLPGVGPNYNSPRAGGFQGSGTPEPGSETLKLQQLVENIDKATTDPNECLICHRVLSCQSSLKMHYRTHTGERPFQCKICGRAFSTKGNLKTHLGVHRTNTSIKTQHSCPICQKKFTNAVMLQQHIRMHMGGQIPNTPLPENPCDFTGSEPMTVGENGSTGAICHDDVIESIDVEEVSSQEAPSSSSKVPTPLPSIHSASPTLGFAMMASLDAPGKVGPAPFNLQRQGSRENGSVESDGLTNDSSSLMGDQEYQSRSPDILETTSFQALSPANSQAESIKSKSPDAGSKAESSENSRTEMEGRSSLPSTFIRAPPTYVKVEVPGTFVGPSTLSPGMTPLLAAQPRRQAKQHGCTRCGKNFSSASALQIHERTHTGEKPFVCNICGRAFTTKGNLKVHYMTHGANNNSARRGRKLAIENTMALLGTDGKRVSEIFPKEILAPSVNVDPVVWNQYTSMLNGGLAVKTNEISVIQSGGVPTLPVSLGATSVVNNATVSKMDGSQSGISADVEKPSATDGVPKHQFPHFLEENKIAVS
Method: universal PBM
Molecule type: double-stranded DNA, one strand shown
Medium: in vitro
Concentration: 600 nM
Setting: 8-mer, flanks averaged, mean of replicates
Direction: higher = stronger binding
Strand	E-score
ATATTGTG	0.313
TTGCAAAA	0.266
AGCGATAG	-0.119
AAGGGTGG	-0.186
ATATTCGC	0.34
ACAACCTG	-0.000615
TCGAGTAA	0.106
CTCGCCCA	-0.121
TACAGTGA	0.122
AGGCTTCG	-0.241
AACCTCAC	-0.0214
GGTGTGAA	0.163
AGCTTGAA	0.0822
GATAAGCC	-0.138
ATATTCAG	0.257
AAGCGCAG	-0.166
AGATCGCT	-0.107
CGGGATCA	-0.179
CAACATGC	0.0685
GGTGATTA	0.167
AGGGGGGG	-0.361
AGCCTATG	0.0561
CGAATTAA	0.212
CTGCCTCC	-0.239
CAACGGAG	-0.316

Block 3
Target: RNA binding protein fox-1 homolog 2, RRM domain, GST-SBP tag (RBFOX2, Homo sapiens, UniProt O43251-10, residues 100-194)
Method: RNA Bind-n-Seq
Molecule type: RNA
Medium: in vitro
Concentration: 365 nM
Setting: natural RNA segment, single round, ends assumed
Relative to: no-protein control
Direction: higher = stronger binding
Shared flanks, not repeated: GGGAGUUCUACAGUCCGACGAUC … UGGAAUUCUCGGGUGCCAA
Residues (chain): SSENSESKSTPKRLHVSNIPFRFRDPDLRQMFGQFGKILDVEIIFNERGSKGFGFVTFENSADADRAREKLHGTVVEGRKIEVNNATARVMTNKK
Strand	RBNS enrichment (R)
CUCAGACAAGCUAAUCAUGGUGCGACUCUCUCCCUUCCUCAUCCACCUCUUUGGGGACAAGAGGAUUACAUCUCAGGCCAGCAAGAUCAGCUGCUUGAAGCUCUGUGUAA	0.433
ACAUCCCCGCUGGCUGGGGGCCUCACUCCAGGAAGGGGCUGGACUGGCUGUCCUUUCCAGUGGCCUGGCUCCGCUGUGUGGAUGGGGAGAUCGGGGCCAGAGGCAGAACC	0.525
UUUUAUGCAGUAGGCAUUACUACAGUACAUGGCUAAUCUUCCCAAAAACUAGCUCAUUAAAGAUGAAAUAGACCAGCUCUCUUCAGUGAAGAGGACAAAUAGUUUAUUUA	0.277
AAAGGGUAGGAGUGCACAUAGGAUAAGACACAUUCCAAAAUCAGGGCCUCCCUGUUUUUUCCUACUCAUCCCUGGCUCCUACAAGGGAAAGUGCAGGCUUUGGGAGCAGG	0.511
UGUCUGAACUAACACUCCCGCGAGCACUAUACUCUUUAUACUCUGAUCCCCCUAGUUCAUCUUAAAUUUGUCCGUGGCCCUGGCAAGAUAGCGUACACAAGAUUCCAUGA	1.26
CAGGGUCUGUCUUUUUCACCUUUGUACCUUUCAUGGCAUCUAGCAUAGUGCUUUGCACAUAGUCGUCACUCAGUGUUUGUUAAUAAAGCUACUAGUGUCAUUAAAACUCU	0.705
ACACACACCAGAUGGCAUCCUUGGGACCUGAAUCUAUCACCCAGGAAUCUCAAACUCCCUUUGGCCCUGAACCAGGGCCAGAUAAGGAACAGCUCGGGCCACUCUUCUGA	0.355
CAGUGCACACACUCCGCAGCUGUGACUCAGCCUUGUGUAGGGUCCCAAAGAAGCAAGCCUUAGAACCGAGCAGGUGAAUCUUAGAGAGUCAGCCAAGGACAGUGCAGAGU	1.28
AAUCAAAAAUAUUUUUGUGAGGGAGUCGGUCCCAGGCAGUUUGAUGCUCUGUGGAAGGAGGCGGGAAGGGAACGUUGGCCAAGUCAGUUACUGAGAUGAAGAUCGCCCAG	0.567
CCUCCUUUGAAUUGAAAUGGCACAUUAAGACUUGUCACGGCUUCUCACUGGGACUGGAGACCUCGUUCCUUCACCCCGCGUGUCGCCAGCCUCUGGGUCCAGCCAGAGCC	0.446
CAAGGCUCCCUUUCUGGGGAAGCCUCGUGUUGGAGAUAGAGGCAGCAGGCCUGCGUUGCCAGGGAGUACCCCAGCCCCUUUCCCUUCUUGGGCUGCUACCGCCGCCACCA	0.303
CUGCAAGCUGCAUCGUGCAACCUCUUUGGUGCCAGUGUGGGCAAGGGCUCAGCCUCUCUGCCCACAGAGUGCCCCCACGUGGAACAUUCUGGAGCUGGCCAUCCCAAAUU	0.421

Block 4
Target: Interferon regulatory factor 5, full length, phosphomimetic (IRF5, Homo sapiens, UniProt Q13568-2, residues 1-514, S451D/S453D/S456D/S462D)
Method: protein-binding microarray
Molecule type: double-stranded DNA, one strand shown
Medium: in vitro
Concentration: 940 nM top
Setting: 60-bp whole probe
Added: salmon DNA 0.4 mg/ml
Relative to: random background probes
Direction: higher = stronger binding
Shared flanks, not repeated: GCCTAGCAC … GTCTTGATTCGCTTGACGCTGCTG
Strand	fitted relative affinity [z-score]
TTAGATATTAAACTGATAGGGTGCTAG	-0.263
CTATATTAGGGAAGTGTGTTGTGCTAG	-0.0469
TGAGGTTTCCTTCTCCTTTAGTGCTAG	1.13
TCAGCTTTCCTGATGGTACTGTGCTAG	0.134
TCAGATCTCAGACTGGATTAGTGCTAG	-0.411
GTGAAATAAGGGAGGCCTAGGTGCTAG	-0.744
GGAAGTATGACTCTGCCTCTGTGCTAG	-0.374
CACTTTCTTTAACTCATTCTGTGCTAG	2.81
CACGGTCTCCTACTGCTGACGTGCTAG	-0.0957
TTAGGTTTCGACACCGGGTTAGTGCTA	8.85
GTAGAAAATTCATGTTATAAGTGCTAG	-0.504
GACGGTCTCGGTTTCGGGTCGTGCTAG	8.65
TAATTTTCATTTTCCAAATGGTGCTAG	1.3

A few entries again (block 1):
Variant	normalised enrichment score
SFEPRNLLYLFED [S9Y]	1.62
SFEPRNLLSLEED [F11E]	0.394
SFEPRVLLSLFED [N6V]	1.21
SFEPRNDLSLFED [L7D]	0.941
SFDPRNLLSLFED [E3D]	0.935
SFEPYNLLSLFED [R5Y]	1.17
